Results gathered from unrelated publications.
Protocols differ between the studies behind these lines. “And” joins repeats or separate records; there may be more than shown. Numbers after ± are the reported error.
BCHE: Cholinesterase (BCHE, Homo sapiens, UniProt P06276)
Sequence of UniProt P06276 (whole entry, looked up): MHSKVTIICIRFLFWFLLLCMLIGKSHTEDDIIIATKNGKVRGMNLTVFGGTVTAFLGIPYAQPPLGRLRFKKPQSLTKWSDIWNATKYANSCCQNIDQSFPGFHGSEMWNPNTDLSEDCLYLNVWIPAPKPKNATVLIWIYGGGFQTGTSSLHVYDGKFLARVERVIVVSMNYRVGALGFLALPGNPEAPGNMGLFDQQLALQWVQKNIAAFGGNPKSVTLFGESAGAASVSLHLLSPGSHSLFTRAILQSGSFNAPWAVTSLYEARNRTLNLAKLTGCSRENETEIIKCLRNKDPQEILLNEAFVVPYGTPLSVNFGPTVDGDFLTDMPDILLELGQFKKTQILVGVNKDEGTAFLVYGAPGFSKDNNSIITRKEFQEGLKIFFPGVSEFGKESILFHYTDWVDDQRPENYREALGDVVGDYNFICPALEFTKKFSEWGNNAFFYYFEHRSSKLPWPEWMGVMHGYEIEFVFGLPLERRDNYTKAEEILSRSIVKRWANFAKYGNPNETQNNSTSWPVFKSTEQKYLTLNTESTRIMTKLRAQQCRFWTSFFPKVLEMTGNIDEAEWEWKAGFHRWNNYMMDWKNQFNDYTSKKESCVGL

Structure (SMILES) = Cc1cccn2c(=O)c3cc(C(=O)Nc4ccc(N(C)C)cc4)n(C)c3nc12; target or system = Vero; assay = MTT; conditions = 100 µM, 24 (unit not given); endpoint = viability; result = 49.1%
Structure (SMILES) = CC[C@H](C)[C@H](NC(=O)[C@H](CCC(=O)O)NC(=O)[C@H](Cc1ccccc1)NC(=O)[C@H](CO)NC(=O)[C@H](CCCCN)NC(=O)[C@H](CCCCN)NC(=O)[C@H](CC(C)C)NC(=O)[C@H](CCCNC(=N)N)NC(=O)[C@H](CC(C)C)NC(=O)[C@@H]1CCCN1C(=O)[C@@H]1CCCN1C(=O)[C@@H](N)Cc1c[nH]cn1)C(=O)N[C@@H](CC(C)C)C(=O)N[C@H](C(=O)N[C@@H](CCCNC(=N)N)C(=O)N[C@@H](CCCCN)C(=O)N1CCC[C@H]1C(=O)N[C@@H](CCSC)C(=O)N[C@@H](CO)C(=O)N[C@@H](CO)C(=O)N[C@@H](CCCCN)C(=O)N1CCC[C@H]1C(=O)N[C@@H](CCCCN)C(=O)N1CCC[C@H]1C(=O)N1CCC[C@H]1C(=O)N1CCC[C@H]1C(=O)N[C@@H](CCCNC(=N)N)C(=O)N[C@@H](CCCCN)C(=O)N[C@@H](Cc1ccc(O)cc1)C(=O)N[C@@H](Cc1ccccc1)C(=O)N[C@@H](CCCCN)C(=O)N[C@@H](CO)C(=O)O)C(C)C; target or system = PMA-differentiated THP-1; assay = cell viability, MTT; conditions = 24 h; endpoint = CC50; result = 59.4 µM
Structure (SMILES) = N=C(N)NCCC[C@H](NC(=O)[C@H](Cc1c[nH]c2ccccc12)NC(=O)[C@H](CCCNC(=N)N)NC(=O)[C@H](Cc1c[nH]c2ccccc12)NC(=O)[C@H](Cc1c[nH]c2ccccc12)NC(=O)[C@H](Cc1c[nH]c2ccccc12)NC(=O)[C@H](CCCNC(=N)N)NC(=O)[C@H](Cc1c[nH]c2ccccc12)NC(=O)[C@@H](N)CCCNC(=N)N)C(=O)N[C@@H](Cc1ccccc1)C(N)=O; target or system = PK-15; endpoint = LC50; result = > 512 µM
Structure (SMILES) = C[C@H]1c2cccc(O)c2C(=O)C2=C(O)[C@]3(O)C(=O)C(C(N)=O)=C(O)[C@@H](N(C)C)[C@@H]3[C@@H](O)[C@@H]21; target or system = Plasmodium falciparum; test system = Dd2; endpoint = IC50; result = 5.01 µM
Structure (SMILES) = CCN(CC)C(=S)SSC(=S)N(CC)CC; target or system = THP-1 ASC-GFP monocytes; assay = MTT; conditions = 24 h; endpoint = maximum tolerated dose; result = 3.11 µg/mL
Structure (SMILES) = O=c1ccc2ccccc2o1; target or system = HepG2; assay = item: HIF1alpha; conditions = concentration not given, 24 h, inflammation and pH panel; endpoint = probability of response; result = 37.5%
Structure (SMILES) = CCOC(=O)C(=O)c1csc(NC=O)n1; target or system = BCHE; assay = inhibitor; conditions = with Triton; endpoint = IC50; result = 15.2 ± 8.42 µM
Structure (SMILES) = Fc1ccc(C(OCCCc2c[nH]cn2)c2ccc(F)cc2)cc1; target or system = Plasmodium falciparum; test system = 7G8; endpoint = IC50; result = 2 µM
Structure (SMILES) = CC(C)(c1ccc(O)cc1)c1ccc(O)cc1; target or system = HepG2 spheroids; assay = annexin V-FITC/PI flow cytometry; conditions = 10 µM, 24 h; endpoint = necrotic cells; result = 14.5 ± 6.93%
Structure (SMILES) = N#C[C@@]1(n2ccc(N)nc2=O)O[C@H](CO)[C@@H](O)[C@H]1O; target or system = CHO; conditions = 250 µM, with S9; endpoint = micronucleated cells; result = 0.37%
Structure (SMILES) = CC(c1ccccc1)(c1ccc(O)cc1)c1ccc(O)cc1; target or system = HepG2 spheroids, dissociated; assay = annexin V-FITC/PI flow cytometry; conditions = 40 µM, 24 h; endpoint = late apoptotic cells; result = 9.34 ± 4.4%
Structure (SMILES) = Cc1cc(C)c(/C=C/c2nc(N)[nH]c(=O)c2Br)c(C)c1; target or system = HeLa; assay = cell morphology alteration; endpoint = minimum cytotoxic concentration; result = 100 µM
Structure (SMILES) = Oc1ccc(C2(c3ccc(O)cc3)c3ccccc3-c3ccccc32)cc1; target or system = HepG2 spheroids, dissociated; assay = annexin V-FITC/PI flow cytometry; conditions = 0.10 µM, 96 h; endpoint = early apoptotic cells; result = 5.7 ± 2.49%
Structure (SMILES) = CC(C)OC(=O)c1cc2c(OCC(O)CNC(C)(C)C)cccc2[nH]1 (stereo not shown); target or system = BCHE; assay = inhibitor; endpoint = IC50; result = 4.91 ± 0.51 µM
Structure (SMILES) = Oc1ccc(C(c2ccc(O)cc2)(C(F)(F)F)C(F)(F)F)cc1; target or system = HepG2 spheroids, dissociated; assay = annexin V-FITC/PI flow cytometry; conditions = 1 µM, 24 h; endpoint = late apoptotic cells; result = 13.1 ± 2.59%
Structure (SMILES) = CC(C)C[C@H](NC(=O)[C@H](C)NC(=O)[C@@H](NC(=O)[C@H](CCCNC(=N)N)NC(=O)[C@H](CC(C)C)NC(=O)[C@H](Cc1c[nH]c2ccccc12)NC(=O)[C@@H]1CCCN1C(=O)[C@@H](N)CCCCN)C(C)C)C(=O)N[C@@H](CS)C(=O)N1CCC[C@H]1C(=O)NCC(=O)O; target or system = Vero; assay = WST-1; conditions = 128 µM, 24 h; endpoint = viability; result = 107% and 108%

Some of these lines once more:
Structure (SMILES) = Oc1ccc(C(c2ccc(O)cc2)(C(F)(F)F)C(F)(F)F)cc1; target or system = HepG2 spheroids, dissociated; assay = annexin V-FITC/PI flow cytometry; conditions = 1 µM, 24 h; endpoint = late apoptotic cells; result = 13.1 ± 2.59%
